Published values from different studies.
Several values in a cell are separate wells, animals, samples, runs or records. ± marks the error that the study gave.
MAPK8: Mitogen-activated protein kinase 8 (MAPK8, Homo sapiens, UniProt P45983)
UniProt P45983, sequence (whole entry, looked up): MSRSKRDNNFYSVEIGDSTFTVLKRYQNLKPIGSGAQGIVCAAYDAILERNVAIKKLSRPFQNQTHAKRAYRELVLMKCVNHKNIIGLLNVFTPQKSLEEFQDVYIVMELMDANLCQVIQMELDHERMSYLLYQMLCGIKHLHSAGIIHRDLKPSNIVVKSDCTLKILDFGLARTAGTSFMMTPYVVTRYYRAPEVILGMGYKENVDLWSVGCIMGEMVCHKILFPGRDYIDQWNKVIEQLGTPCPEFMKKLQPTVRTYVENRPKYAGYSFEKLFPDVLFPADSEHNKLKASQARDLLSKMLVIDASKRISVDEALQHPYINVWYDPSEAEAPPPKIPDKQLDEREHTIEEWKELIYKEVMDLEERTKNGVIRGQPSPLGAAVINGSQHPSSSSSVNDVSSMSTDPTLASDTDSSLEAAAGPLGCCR
EEF2 Cys41: Elongation factor 2, Cys41 (EEF2, Homo sapiens, UniProt P13639)
UniProt Q92633, sequence (whole entry, looked up): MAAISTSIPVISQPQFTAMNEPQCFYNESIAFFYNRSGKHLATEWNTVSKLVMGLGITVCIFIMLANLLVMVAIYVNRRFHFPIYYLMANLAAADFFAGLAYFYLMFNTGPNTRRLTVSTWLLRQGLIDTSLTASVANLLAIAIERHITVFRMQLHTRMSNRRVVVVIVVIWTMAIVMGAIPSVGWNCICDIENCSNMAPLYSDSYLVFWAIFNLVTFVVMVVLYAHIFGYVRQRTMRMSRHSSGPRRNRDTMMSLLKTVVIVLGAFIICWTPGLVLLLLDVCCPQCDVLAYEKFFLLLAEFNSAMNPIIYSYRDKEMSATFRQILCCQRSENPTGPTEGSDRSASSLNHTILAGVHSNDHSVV
UniProt Q6HA09, sequence (whole entry, looked up): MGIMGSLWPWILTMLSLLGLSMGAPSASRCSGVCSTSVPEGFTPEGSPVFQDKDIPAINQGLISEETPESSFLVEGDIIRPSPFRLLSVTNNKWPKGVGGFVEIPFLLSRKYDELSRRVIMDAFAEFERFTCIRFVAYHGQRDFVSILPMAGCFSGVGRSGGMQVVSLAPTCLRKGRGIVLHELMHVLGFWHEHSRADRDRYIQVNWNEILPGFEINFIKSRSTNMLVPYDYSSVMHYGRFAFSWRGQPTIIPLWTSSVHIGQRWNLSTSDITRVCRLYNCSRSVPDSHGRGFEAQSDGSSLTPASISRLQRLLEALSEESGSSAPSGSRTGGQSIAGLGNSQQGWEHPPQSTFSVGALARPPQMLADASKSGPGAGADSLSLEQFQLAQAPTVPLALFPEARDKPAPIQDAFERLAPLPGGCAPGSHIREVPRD
UniProt Q9P2K8, sequence (whole entry, unmodified, looked up): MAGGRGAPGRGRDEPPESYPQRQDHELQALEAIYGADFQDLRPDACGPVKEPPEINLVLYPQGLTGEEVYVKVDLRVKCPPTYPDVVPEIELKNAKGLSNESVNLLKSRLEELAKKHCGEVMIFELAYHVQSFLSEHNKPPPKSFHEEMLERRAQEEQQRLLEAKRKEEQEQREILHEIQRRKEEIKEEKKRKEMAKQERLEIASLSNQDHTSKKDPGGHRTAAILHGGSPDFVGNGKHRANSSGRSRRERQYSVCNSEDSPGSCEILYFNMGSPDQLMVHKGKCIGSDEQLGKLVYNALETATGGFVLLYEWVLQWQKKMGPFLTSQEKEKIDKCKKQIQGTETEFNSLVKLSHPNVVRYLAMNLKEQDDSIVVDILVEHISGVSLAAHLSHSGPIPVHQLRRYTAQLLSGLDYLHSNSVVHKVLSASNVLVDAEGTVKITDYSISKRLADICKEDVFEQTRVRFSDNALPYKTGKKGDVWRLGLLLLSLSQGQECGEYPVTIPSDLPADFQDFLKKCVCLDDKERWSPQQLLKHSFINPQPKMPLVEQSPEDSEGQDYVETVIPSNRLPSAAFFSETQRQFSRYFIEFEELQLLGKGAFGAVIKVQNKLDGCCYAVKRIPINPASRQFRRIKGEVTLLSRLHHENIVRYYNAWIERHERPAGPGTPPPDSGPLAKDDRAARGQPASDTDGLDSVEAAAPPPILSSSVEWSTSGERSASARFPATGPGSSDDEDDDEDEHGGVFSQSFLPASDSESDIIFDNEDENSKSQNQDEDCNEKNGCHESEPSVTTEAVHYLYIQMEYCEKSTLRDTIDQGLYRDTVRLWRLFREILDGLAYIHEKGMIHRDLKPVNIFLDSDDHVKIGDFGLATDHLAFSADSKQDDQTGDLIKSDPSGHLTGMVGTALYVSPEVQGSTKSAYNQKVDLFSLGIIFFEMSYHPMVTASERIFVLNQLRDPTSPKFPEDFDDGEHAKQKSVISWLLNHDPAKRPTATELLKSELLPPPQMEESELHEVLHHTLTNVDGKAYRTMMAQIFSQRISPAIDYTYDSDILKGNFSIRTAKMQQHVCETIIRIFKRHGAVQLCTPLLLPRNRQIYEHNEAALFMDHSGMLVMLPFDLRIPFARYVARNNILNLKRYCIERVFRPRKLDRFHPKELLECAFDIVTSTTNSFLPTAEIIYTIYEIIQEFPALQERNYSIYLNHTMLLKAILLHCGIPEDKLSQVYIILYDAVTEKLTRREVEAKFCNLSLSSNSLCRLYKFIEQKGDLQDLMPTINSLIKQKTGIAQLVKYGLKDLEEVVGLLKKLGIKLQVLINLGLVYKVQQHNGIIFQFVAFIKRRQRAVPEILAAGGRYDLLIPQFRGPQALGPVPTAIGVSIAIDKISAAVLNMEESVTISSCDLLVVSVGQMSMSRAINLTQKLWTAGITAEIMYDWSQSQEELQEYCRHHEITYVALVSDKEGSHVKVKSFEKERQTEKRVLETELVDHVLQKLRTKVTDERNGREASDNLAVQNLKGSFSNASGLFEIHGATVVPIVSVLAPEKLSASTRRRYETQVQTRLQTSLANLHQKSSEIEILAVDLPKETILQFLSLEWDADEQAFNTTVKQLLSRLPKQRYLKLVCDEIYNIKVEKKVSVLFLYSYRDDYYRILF
UniProt Q9BT09, sequence (whole entry, looked up): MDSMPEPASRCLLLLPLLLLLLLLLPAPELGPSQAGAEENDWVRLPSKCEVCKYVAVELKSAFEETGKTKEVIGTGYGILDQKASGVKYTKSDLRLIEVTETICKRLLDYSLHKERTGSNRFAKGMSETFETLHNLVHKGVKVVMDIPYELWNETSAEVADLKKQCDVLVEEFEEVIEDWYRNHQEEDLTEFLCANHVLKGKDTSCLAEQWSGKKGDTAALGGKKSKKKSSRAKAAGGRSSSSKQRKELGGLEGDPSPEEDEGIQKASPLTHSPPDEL
UniProt Q6V1X1, sequence (whole entry, looked up): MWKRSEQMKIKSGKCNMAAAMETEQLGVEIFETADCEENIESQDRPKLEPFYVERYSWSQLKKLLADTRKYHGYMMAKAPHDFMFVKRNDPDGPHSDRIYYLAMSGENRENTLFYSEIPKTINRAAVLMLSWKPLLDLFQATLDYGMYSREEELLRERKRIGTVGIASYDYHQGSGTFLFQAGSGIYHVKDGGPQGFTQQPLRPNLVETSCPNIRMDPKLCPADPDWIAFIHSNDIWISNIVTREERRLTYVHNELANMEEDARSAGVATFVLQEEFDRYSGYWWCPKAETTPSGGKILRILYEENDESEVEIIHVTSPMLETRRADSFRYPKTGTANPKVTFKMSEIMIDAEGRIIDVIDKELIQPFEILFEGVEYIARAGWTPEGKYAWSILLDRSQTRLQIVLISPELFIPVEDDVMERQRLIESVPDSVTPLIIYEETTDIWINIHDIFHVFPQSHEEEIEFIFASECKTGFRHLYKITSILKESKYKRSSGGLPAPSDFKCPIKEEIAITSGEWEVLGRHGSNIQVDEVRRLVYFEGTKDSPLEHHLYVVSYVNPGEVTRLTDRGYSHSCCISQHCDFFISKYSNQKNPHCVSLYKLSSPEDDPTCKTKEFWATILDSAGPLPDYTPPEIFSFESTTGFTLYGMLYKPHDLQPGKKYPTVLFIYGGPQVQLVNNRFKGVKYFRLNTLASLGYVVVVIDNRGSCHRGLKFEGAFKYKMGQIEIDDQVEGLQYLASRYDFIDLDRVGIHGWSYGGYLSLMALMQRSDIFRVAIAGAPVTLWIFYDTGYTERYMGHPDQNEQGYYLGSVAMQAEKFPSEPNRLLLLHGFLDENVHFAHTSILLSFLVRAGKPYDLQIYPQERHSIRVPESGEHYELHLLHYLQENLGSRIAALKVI
UniProt P47936, sequence (whole entry, looked up): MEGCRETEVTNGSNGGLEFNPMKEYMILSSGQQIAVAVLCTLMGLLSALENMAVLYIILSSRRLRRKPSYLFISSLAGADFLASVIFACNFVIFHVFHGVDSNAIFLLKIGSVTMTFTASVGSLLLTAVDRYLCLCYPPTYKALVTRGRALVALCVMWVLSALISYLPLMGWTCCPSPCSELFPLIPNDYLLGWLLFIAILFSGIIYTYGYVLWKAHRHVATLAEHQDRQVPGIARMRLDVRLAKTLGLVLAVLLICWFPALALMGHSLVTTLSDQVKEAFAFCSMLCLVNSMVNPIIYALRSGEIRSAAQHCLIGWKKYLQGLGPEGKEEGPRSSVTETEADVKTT

`COc1cc(C2C(NC(=O)c3ccc(NC(=O)OC(C)(C)C)cc3)(C(=O)O)C(c3ccc(OC(=O)c4cccs4)c(OC)c3)C2(NC(=O)c2ccc(NC(=O)OC(C)(C)C)cc2)C(=O)O)ccc1OC(=O)c1cccs1` (stereo not shown) has an Emax of 100 ± 3.42% (Glucagon-like peptide 1 receptor (GLP1R, Homo sapiens, UniProt P43220, Q140A); cAMP accumulation, agonist; receptor mutant; relative to: wild type).
Under “log2 LFQ intensity”, `N[C@H]1CC[C@H](Nc2nccc(-c3cccnc3Oc3ccc(NC(=O)NC4CC4)c4ccccc34)n2)CC1` is recorded as 25.8 and 26.1 and 25.9 (Elongation factor 2 (EEF2, Homo sapiens, UniProt P13639); kinobead competition pulldown; HEK293/HCT116 lysate mixture; 10 µM, 1 h, 4 °C; lower = stronger competition).
The fraction bound of `COC(=O)[C@@]1(Cc2ccccc2)C=C(C(=O)OC(C)(C)C)C(=O)CC1` is reported as 0.182 (MAPK8; D-peptide binding, inhibitor, FP peptide displacement; 15.62 µM; lower is stronger displacement).
For `CCCCCCCCCCCCC/C=C/C=O`, “isoTOP-ABPP competition ratio” read 1 (EEF2 Cys41; competitive isoTOP-ABPP; Ramos soluble proteome; 100 µM, 60 min, with: iodoacetamide probe; relative to: DMSO over compound-treated, higher = stronger cysteine blockade).
`CCCCCCCC/C=C\CCCCCCCC(=O)OCC(O)COP(=O)(O)O` (stereo not shown) gave a fold change of 1 and 1.01 and 0.997 and 0.99 and 0.984 and 0.998 (Lysophosphatidic acid receptor 1 (LPAR1, Homo sapiens, UniProt Q92633); G-protein dissociation, agonist, NanoBiT; HEK-293T; 100 pM, wild-type receptor; relative to: baseline luminescence).
`CCCCCC(O)/C=C/C=O` (stereo not shown): “isoTOP-ABPP competition ratio” 1.4 (Protein canopy homolog 3 (Homo sapiens, UniProt Q9BT09); competitive isoTOP-ABPP; proteome, soluble, MDA-MB-231; 100 µM, 60 min, with: iodoacetamide probe; relative to: DMSO over compound-treated, higher = stronger cysteine blockade).
For `Nc1ccn([C@@H]2O[C@H](COP(=O)(O)OP(=O)(O)OP(=O)(O)O)[C@@H](O)[C@@H]2O)c(=O)n1`, the Vmax was 0.72 fraction per time (Genome polyprotein, NS5B (Hepatitis C virus genotype 1b, UniProt Q9WMX2); nucleotide incorporation, substrate).
With `CN(C)c1ccc(-n2cc(COC(=O)[C@]3(C)C=C(C(=O)OC(C)(C)C)C(=O)CC3)nn2)cc1` the fraction bound was 0.149 (MAPK8; D-peptide binding, inhibitor, FP peptide displacement; 200 µM; lower is stronger displacement).
The pIC50 Z-score of `Cc1ccc(C(=O)N2c3ccc(F)cc3[C@@H](Nc3ccccc3)C[C@H]2C)cc1` is reported as -0.2 (Ecdysone receptor (Aedes albopictus, UniProt Q9U3Y4); ligand binding, inhibitor; intact cells; with: [3H]ponasterone A; direction not given).
`C=C1CC2(C(=O)OC)C=C(C(=O)OC(C)(C)C)C(=O)C1C2` (stereo not shown): “luminescence relative to control” 0.611 (Mitogen-activated protein kinase 8, with MKK7 (MAPK8, Homo sapiens, UniProt P45983); protein-protein interaction, NanoBiT, measured: MKK7-JNK1 binding; HEK293T; 10 µM; relative to: DMSO control).
The Emax of `CCOC(=O)C(CC)(CCCSCCOCCOCCN=[N+]=[N-])NC(=O)c1ccc(C2CC2)c(Cc2ccc(F)cc2)n1` (stereo not shown) is reported as 93% (Cannabinoid receptor 2 (Cnr2, Mus musculus, UniProt P47936); cAMP, agonist).
The ΔH of `CC[C@H](C)[C@H](NC(=O)[C@@H](NC(=O)[C@@H](NC(=O)[C@@H](NC(=O)[C@H](CCCNC(=N)N)NC(=O)[C@H](CCC(=O)O)NC(=O)[C@H](CCC(=O)O)NC(=O)[C@H](C)NC(=O)[C@H](CCC(=O)O)NC(=O)CNC(=O)[C@H](C)NC(=O)CN)C(C)C)C(C)C)C(C)C)C(=O)N[C@@H](CC(=O)O)C(=O)N[C@@H](CC(=O)O)C(=O)N[C@@H](CC(=O)O)C(=O)N[C@@H](CCC(=O)O)C(=O)N[C@@H](CC(=O)O)C(=O)N[C@@H](CC(=O)O)C(=O)N[C@@H](CC(=O)O)C(=O)N[C@@H](C)C(=O)N[C@@H](CCC(=O)O)C(=O)N[C@@H](CC(N)=O)C(=O)N[C@@H](CO)C(=O)N[C@@H](CO)C(=O)N[C@@H](CO)C(=O)N[C@@H](CCCNC(=N)N)C(=O)N[C@@H](Cc1ccc(O)cc1)C(=O)O` is reported as 2.18 ± 0.4 kcal/mol (Small ubiquitin-related modifier 2, N-terminally truncated (Homo sapiens, UniProt P61956, C48A); binding, ITC; Tris buffer; pH 7.4, ΔN-SUMO2).
`CCC1(CC)C(=O)N(c2cccc(CN3CCN(Cc4ccc(C)c5ccccc45)CC3)c2)C1=O.O=C(O)C(F)(F)F`: “activity vs control” 12% (Dipeptidyl peptidase 8 (Homo sapiens, UniProt Q6V1X1); enzyme activity, inhibitor; 5 µM).
With `O=C(CN(Cc1ccc2c(c1)OCO2)Cc1ccc2c(c1)OCO2)NO` the remaining activity was 29 ± 5% (Astacin-like metalloendopeptidase (Astl, Mus musculus, UniProt Q6HA09); enzyme activity, inhibitor, fluorogenic; 5 µM).
Under “activity vs control”, `CNC(=O)C[C@H](Cc1ccc(C#N)cc1)NC(=O)c1cc(-c2ccc(CN[C@H](C)c3ccc(C)cc3)o2)ccc1Cl` is recorded as 104% (Transcription initiation factor TFIID subunit 1-like (TAF1L, Homo sapiens, UniProt Q8IZX4); enzyme activity, inhibitor; 1 µM).
`CCCCCC=CC=C1C(=O)C=CC1CC=CCCCC(=O)O` (stereo not shown) — result for “isoTOP-ABPP competition ratio”: 2 (EEF2 Cys41; competitive isoTOP-ABPP; Ramos soluble proteome; 100 µM, 60 min, with: iodoacetamide probe; relative to: DMSO over compound-treated, higher = stronger cysteine blockade).
The remaining binding of `Cc1cc(NC(=O)[C@H](O)c2cc(F)cc(F)c2)ccc1-c1cnc(N)c(C(=O)NC(C)C)c1` is reported as 88% (eIF-2-alpha kinase GCN2, C-terminal kinase domain (EIF2AK4, Homo sapiens, UniProt Q9P2K8, S808G); binding, competition with immobilised ligand; 0.1 µM).
`CC(C)(C)OC(=O)C1=C[C@@](C)(C(=O)OCC#Cc2ccncc2)CCC1=O` has a fraction bound of 0.894 (MAPK8; D-peptide binding, inhibitor, FP peptide displacement; 0.7812 µM; lower is stronger displacement).
For `Oc1ccc(/C=C/c2cc(O)cc(O)c2)cc1`, the cooperativity factor was 1.2 (O-methyltransferase (Sorghum bicolor, UniProt A0A1B6PFV1, W279A); isothermal titration calorimetry; W279A mutant, with: saturating sinefungin).
